Results collected from several papers.
Each numbered part is a random draw from the data of one study; scales do not carry over between parts.

Study 1 — technique: EMSA with sequencing; form: double-stranded DNA, one strand shown; medium: in vitro; concentration: 10 and 20 nM; baseline: negative control set to 0; reading: higher = stronger binding
Target: Hepatocyte nuclear factor 3-alpha (Foxa1, Mus musculus, UniProt P35582, residues 1-468, full length assumed)
UniProt P35582, sequence (whole entry, looked up): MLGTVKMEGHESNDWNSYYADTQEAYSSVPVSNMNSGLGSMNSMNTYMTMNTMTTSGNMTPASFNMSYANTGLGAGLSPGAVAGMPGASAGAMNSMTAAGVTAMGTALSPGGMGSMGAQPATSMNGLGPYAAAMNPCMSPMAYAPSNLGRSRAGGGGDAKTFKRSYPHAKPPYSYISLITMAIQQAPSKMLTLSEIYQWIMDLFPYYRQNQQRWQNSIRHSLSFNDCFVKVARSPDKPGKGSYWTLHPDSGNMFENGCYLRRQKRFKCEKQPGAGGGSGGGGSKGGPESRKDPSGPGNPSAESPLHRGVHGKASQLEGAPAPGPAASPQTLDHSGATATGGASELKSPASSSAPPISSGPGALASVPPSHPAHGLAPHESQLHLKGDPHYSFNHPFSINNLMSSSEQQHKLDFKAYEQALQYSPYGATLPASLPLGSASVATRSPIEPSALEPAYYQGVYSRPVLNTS
Setting: whole designed probe, mean of two concentrations, ends assumed
Sequence | normalised bound fraction [ratio]
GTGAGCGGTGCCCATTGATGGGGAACGAGAGCCCTGGAAGCTCAGAAGAGGCAAGAGGGGCCTACTTCTCCCTTGTTTGGGCTTTGTTTGCTAAATACCAATATTAGATTAGGCAACTCTGCAATCTAAACCAAGGCCTGGCCAGCTGCCCAGGGTGTTTAAAGTCCAAGACATGAAGGCAGGACGTGTGCCCGTGGACTTGCACACGCAAGCAGGCCGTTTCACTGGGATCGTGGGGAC | 0.23
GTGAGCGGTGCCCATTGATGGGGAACAGAGGTTCTGCCTTATCAGAGTCCCTGACCCACAGTGAGAAATTAATACACATATTTTTGAATAAATTTTGAATAAGTAACTGGGGATTTAAGTAAACAAGAAATTACCCTATAGTGAGAGAAGAGTTTTAACATGTGGTGAGTGGTACAAAGTAGCACACCCAAGGTCGTGGGTTAATGACTTCCTTCCTTGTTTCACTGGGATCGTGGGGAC | 0.395
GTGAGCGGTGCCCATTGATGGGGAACGAGGCTCCCCTTTACGAATGGGGGCACCCGGGCTGCAGCCACTACTACTTCGCTTGGGATCGGTCCTCCGCCCCAAGATGGCTCCCAGTCGCTGTTTACTCAGCGACTGCAGGGACACCAGGGCGCGGGGCCGGGGAGCGGGCGAAGATCACGGAGCGTACAGATTGGCCCGGGCAGGTGGCCTCTCCGCGTGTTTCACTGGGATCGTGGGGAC | 0.331
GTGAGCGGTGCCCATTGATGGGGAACAAGGAGAGGATGGAGGGAGGAAGATCAAACAAAGGTTCATAAGAAAAGGCTTGTTAGAACTAAACCTGAAATGATATGTAGAAGCTTGCTAAGTAAACAAGAAATAAAGGTAAATATGGTGTATAGGGAAGAGAATCTTTGTGAAATGGCCTGTGTTCCAGAATTACTTGAGTATAGGAGTAGAACAAAGGGATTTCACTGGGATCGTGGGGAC | 0.558
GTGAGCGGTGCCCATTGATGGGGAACATCTTCCCCCTCTTCCTTGCCCCACCAGCTCACCTTCCCGGGTTATTTGCAGATAGGAAAATAAATAAAGCCGGCATTCGTTAACCCTCTTCTGGCGCAAACTGCTGTTTGCTCTGGATGAATCATGCCTTGTGTGCGACGCCAGGCTCCGGGAGAGCAAAGCACCGTGTCAGGGCCATGATCCGGGGTGGCCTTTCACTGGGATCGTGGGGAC | 0.353
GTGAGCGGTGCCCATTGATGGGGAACAATATTTCAAACACTACGTACCCCAACTGACATTTGAGTAGCAGTTAAGTTCTTGGAACGCTGGTTACGTAACCCATTTTGATCTAGCTCATTGTAAACAGGATGAAATAGGGCAGTTAAAAGACTAATGGTCAGTGAAATCTACAACAGGAATGGAAAGAATTTTCCCCTTAAAAATTTGGAAATCCTTATTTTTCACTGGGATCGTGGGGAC | -0.00895

Study 2 — technique: aptamer microarray, sandwich; form: DNA with 2'F-ANA; medium: in vitro; concentration: 200 nM; together with: Cy3 exosite-II aptamer, 400 nM; reading: higher = stronger binding; sequence: GGTTGGTGTGGTTGG
Target: Prothrombin, mature alpha-thrombin (F2, Homo sapiens, UniProt P00734)
Setting: whole 15-mer aptamer, many near background
Modification | mean fluorescence intensity [a.u.]
2'F-ANA at 2 4 5 7 8 10 12 13 15 | 52.3
2'F-ANA at 7 9 11 12 13 14 | 210
2'F-ANA at 1 3 6 10 11 12 13 | 95.5
2'F-ANA at 1 5 9 11 13 15 | 48.9
2'F-ANA at 1 3 5 9 12 | 122
2'F-ANA at 3 6 8 9 10 11 | 481
2'F-ANA at 2 3 6 7 8 9 12 14 | 394
2'F-ANA at 1 2 5 7 8 9 | 68.5
2'F-ANA at 1 5 7 8 9 | 68.5
2'F-ANA at 1 4 5 6 7 13 15 | 51.9
2'F-ANA at 2 4 6 7 9 10 | 82.8
2'F-ANA at 2 3 10 11 12 13 | 425
2'F-ANA at 2 3 4 8 9 11 12 14 15 | 263
2'F-ANA at 3 5 6 8 10 11 12 14 15 | 82.6
2'F-ANA at 1 2 5 6 8 10 11 12 14 15 | 169
2'F-ANA at 3 4 5 6 8 11 12 13 15 | 115
2'F-ANA at 3 5 7 11 13 14 15 | 55.6
2'F-ANA at 2 4 6 7 8 9 11 12 13 14 | 101
2'F-ANA at 1 2 3 4 5 6 7 9 10 11 13 15 | 50.2

Study 3 — technique: RNA Bind-n-Seq; form: RNA; medium: in vitro; concentration: not given; baseline: input RNA pool; reading: higher = stronger binding
Target: RING finger protein unkempt homolog, zinc fingers 1-6, GST-SBP tag (UNK, Homo sapiens, UniProt Q9C0B0, residues 30-357)
Setting: RNA with constant flanks, human-mouse chimeric sites, ends assumed
Residues (chain): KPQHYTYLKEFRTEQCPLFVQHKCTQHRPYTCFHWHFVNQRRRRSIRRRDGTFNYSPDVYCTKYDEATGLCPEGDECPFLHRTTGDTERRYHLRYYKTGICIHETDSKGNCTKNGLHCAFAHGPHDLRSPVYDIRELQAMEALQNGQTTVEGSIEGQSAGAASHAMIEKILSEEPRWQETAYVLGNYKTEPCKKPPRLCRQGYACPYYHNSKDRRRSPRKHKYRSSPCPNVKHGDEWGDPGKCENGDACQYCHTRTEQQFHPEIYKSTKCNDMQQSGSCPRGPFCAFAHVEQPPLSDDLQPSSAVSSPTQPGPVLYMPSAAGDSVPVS
Sequence | bound/input enrichment [ratio]
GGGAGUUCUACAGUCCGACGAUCGUAAUGUUUAUUCAUUUAACUUAUUUUUAUAGCUAGAUAAAUAUUGUUAGUCUUAGAGAGUAGUUCACAUUUUUUGAGAAGCAUGCCCUCCCUGUCCAUUUGUCUUAUAACAUGACCCAGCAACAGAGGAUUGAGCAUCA | 10.9
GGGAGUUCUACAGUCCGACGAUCCACAGAGCAGCACCUACCCCCUCCUCCUUUCCACACCUGCAAACUCUUUUACUUGGGCUGAAUAUUUAGUGUUAAUUACAUCGCAGCUUGAGGGCUCCUGUGGCAAAUUCCCGGAUUAAACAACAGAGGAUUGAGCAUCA | 1.19
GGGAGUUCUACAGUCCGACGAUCCAGCGCCGAGGCCGCGGUUUCCCCCUGGGCCUCCCCAGCAGCAGCCAUGGGCAUCAAGUUUUUAGAAGUUAUCAAACCAUUCUGUGCAGUUCUACCAGAAAUUCAGAAGCCUGAAAGGAACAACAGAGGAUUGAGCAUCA | 1.04
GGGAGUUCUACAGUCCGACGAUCUAAGUUAUUUUGUACAGCUUUGUAAAUUCUUAACAUUUUUAUAUUGCCAUGUUUAUUUUGUUUGGGUGCUUUAUUAAAUUAAGUACAUAGCUAAGGUAAUGAACAUCGUAAUUAUAGAUUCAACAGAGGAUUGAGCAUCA | 0.638
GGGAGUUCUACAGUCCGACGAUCUCCUUGGACCCCAGUCAUAUAGGUGACCUGCAGAAAGCAGACACCAGUAGUCAAGGUGCUUUAGUGUUUCUCUCAAAGGACUACGAAAUAGAAAAUCAAAAUCCUCUGGCCUCUCCUACGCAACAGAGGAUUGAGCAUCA | 2.24
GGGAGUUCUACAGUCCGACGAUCUUUCUACUGCAGCAAACGAUGCUAAGAAUUAAGGAUCCUAAGAAGUCACUGGAUUUUUAUACUAGAGUUCUUGGACUGACCCUCCUGCAGAAGCUUGACUUCCCUGCUAUGAAGUUCUCGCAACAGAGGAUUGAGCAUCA | 0.0851
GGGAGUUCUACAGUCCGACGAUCGGAAUUGCUGAUUCAAGUAAGUUUGAGUAUCACAAUGUUAGCUUUCUAAUUCCAUAAAAGUACUUGGUUUUUACAGUUUAUAAUCUGACAUCACCCCCCGUUUAUAAGUAAAGAGCAACUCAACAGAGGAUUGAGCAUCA | 1.33
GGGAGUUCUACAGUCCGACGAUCAUCAAAUACUUUGGGGACAUCAUUAGUGUGGGACAGAGACUGUUGCAAGGGGCCCGGAUCUUAGGGAUUCCAGUUAUUGUAACAGAACAAUACCCCAAAGGACUUGGCAGCACCGUUCAACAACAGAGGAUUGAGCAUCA | 0.191
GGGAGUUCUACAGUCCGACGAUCUGUGAACUGUCUCUUGAUUGGGGUCUACAAGAUGACUUUUCCUGGCACAUAUUCCAAAGCAAAGACUUUGUUGCCUGCUGCUUAUUGUCUAAUUUACAGGGAUAUUUAAUUUUGUAAGGUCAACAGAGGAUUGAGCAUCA | 0.235
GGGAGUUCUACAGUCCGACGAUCCCCUCCCGGGCCACCCAACCCCUCCCGGCUCCCCGCCGAGAUCCAGGUUUCUUCUUAUUUCAUAGCCAAUAAGAAAAAUGUUCUACGCACAUUUUGUCCUCAGUAAACGAGGGCCUCUGGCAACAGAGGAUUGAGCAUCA | 0.516
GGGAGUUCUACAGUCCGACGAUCAUGGAACAUUUCGAUGCGUCACUCAGUACCUAUUUCAAGGCAUUGCUAGGCCCUCGAGAUACAAGAGUCAAAGGAUGGUUCCUCCUGGACAAUUACAUCCCUACGUUUGUCUGUUCUGUUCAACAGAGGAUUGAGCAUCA | 0.109

Study 4 — technique: RNA Bind-n-Seq; form: RNA; medium: in vitro; concentration: 365 nM; baseline: no-protein control; reading: higher = stronger binding
Target: RNA binding protein fox-1 homolog 2, RRM domain, GST-SBP tag (RBFOX2, Homo sapiens, UniProt O43251-10, residues 100-194)
Setting: natural RNA segment, single round, ends assumed
Residues (chain): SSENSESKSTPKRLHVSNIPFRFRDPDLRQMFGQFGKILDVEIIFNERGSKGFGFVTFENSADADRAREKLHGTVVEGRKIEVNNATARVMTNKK
Sequence | RBNS enrichment (R)
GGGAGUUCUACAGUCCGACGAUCAAUAGACUGUCUCAUCAACCCUCCUGUGUCCUCUGAAGCAAUCUCAGUUUUUAUUAACCACCUCUUCUGUGUUUCUGGUAGCUAUUUAACCUGUAUUUAAUCUGUACUUCUGGAAUUCUCGGGUGCCAA | 0.553
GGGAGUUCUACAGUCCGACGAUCUUGGUCACUGUAAAUAUGAAUUGUGACCCCAUCCCUUCCCGCAUGAGCCCAGUGAGUCCCAGCAGCUAUCAGCCUCCCUGAACGAUUAAACAGCUCCUCCCAGCAUUUGCUGGAAUUCUCGGGUGCCAA | 6.38
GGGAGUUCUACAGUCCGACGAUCGUUUGUAGUUAAGGUGUCUGGGGUAACAGAUAACAUGGGCCUGAGGGAGCCCUCAGGUCUAUAGGAAAGGCCCCUCUUAAGACAGAAACGGUUUAACAGCAAGGGUACAAUGGAAUUCUCGGGUGCCAA | 0.977
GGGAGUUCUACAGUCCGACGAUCGAGCCUUACUUAGAAGAUGCUGCUGGAGUCACAGCUGAGGAGAGGAAUACUAUCAACAUGGACUAUCCUGGGAAAGAGCUAGGAAGUAGAUGCUGAGGUCCCCAUCCAAAUGGAAUUCUCGGGUGCCAA | 0.525
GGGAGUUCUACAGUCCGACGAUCUCUGAAUGGAUGUGUUACCAGAAGCAUUUUAGCUACAGCCUAGAAAAUGACAUUGUGAACACAGUAUUAUUGUGGGAAGAGGGCAUUUGGAUUUCUCAAUGUUUGUGAUAUGGAAUUCUCGGGUGCCAA | 2.74
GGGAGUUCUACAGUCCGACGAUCGUUUGUGAGAAGAGCAGAAUCACGGAGACGCAAUCCUGACCACUGACUACAAGAGGAGCAACCCAGAGGAUACACUCCCCUCUCUGGUGUCUGAGGAGUGUGAACCGUUGUGGAAUUCUCGGGUGCCAA | 0.382
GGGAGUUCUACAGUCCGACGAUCCAUCUCGCCUGGGGACCUGGUUUAUCUGUCCUCAUUCUCCCCAUUCGAUUGUGGUGUCUUGGCGACUAAUCAGUUUCAUUGUAUAACCAGCCAGAUCUUCACCUCUUCUUUGGAAUUCUCGGGUGCCAA | 0.43
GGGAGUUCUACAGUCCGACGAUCGGGGACAUGGAGCUUAAUCAUUGGUCAGGUUUGAAGUCUUUUGAAGCUAAGUAAUUUUAUUUAAUAUGAUUACAUGUCGUCAGUCAUGAGUGAGGUGUAGGGAGUCUCCCUGGAAUUCUCGGGUGCCAA | 0.666
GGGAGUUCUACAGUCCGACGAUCGCUCUGGGCAGGGCCUGGGGAUCCCACAUUCCAUGCCCAGGCUUGGGGGAGGGGGACCCAGACUUGUUGUACAUAUUUUGCAUACUGUCUGAUUAAACACAAACAGACCUUGGAAUUCUCGGGUGCCAA | 0.259
